Published values collected from several papers.
Every numbered part comes from another study and shows a few of its results, in no order.

Series 1 — technique: protein-binding microarray; molecule type: double-stranded DNA, one strand shown; matrix: in vitro; concentration: 2200 nM top; setting: 60-bp whole probe; together with: salmon DNA 0.4 mg/ml; baseline: random background probes; direction: higher = stronger binding; endpoint: fitted relative affinity
Target: Interferon regulatory factor 7, full length, phosphomimetic (IRF7, Homo sapiens, UniProt Q92985, residues 1-503, S471D/S472D/S475D/S476D/S477D/S483D/S484D/S487D)
Construct (chain): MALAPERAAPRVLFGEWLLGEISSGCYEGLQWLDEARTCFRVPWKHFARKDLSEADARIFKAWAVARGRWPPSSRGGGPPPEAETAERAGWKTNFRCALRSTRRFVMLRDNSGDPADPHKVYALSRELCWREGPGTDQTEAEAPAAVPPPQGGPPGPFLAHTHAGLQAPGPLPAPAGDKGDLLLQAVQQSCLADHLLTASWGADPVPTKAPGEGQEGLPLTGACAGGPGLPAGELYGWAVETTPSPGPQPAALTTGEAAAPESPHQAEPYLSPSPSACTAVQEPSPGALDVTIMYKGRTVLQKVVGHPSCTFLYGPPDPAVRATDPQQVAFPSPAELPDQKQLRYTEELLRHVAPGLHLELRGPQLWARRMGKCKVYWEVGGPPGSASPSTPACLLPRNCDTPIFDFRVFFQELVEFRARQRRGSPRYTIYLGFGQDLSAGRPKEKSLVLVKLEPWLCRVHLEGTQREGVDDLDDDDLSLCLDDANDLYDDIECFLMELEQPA
GCCTAGCACCACTCTTTCCTCACCATACTGTGCTAGGTCTTGATTCGCTTGACGCTGCTG: 2.74 z-score
GCCTAGCACCACGATCTCAGTCTCGAGACGTGCTAGGTCTTGATTCGCTTGACGCTGCTG: 0.845 z-score
GCCTAGCACTTAGGTTTCGGTTCCCGTTAGTGCTAGGTCTTGATTCGCTTGACGCTGCTG: 12.3 z-score
GCCTAGCACTTAGGTATCGGTCTTGGTTAGTGCTAGGTCTTGATTCGCTTGACGCTGCTG: 0.859 z-score

Series 2 — technique: protein binding microarray; molecule type: double-stranded DNA, one strand shown; matrix: in vitro; concentration: not given; baseline: not given; direction: higher = stronger binding; endpoint: E-score
Target: Histone acetyltransferase KAT6A, both winged helices, GST fusion (KAT6A, Homo sapiens, UniProt Q92794, residues 1-181)
Setting: 8-mer, flanks averaged, mean of 2 arrays, mostly near background
Construct (chain): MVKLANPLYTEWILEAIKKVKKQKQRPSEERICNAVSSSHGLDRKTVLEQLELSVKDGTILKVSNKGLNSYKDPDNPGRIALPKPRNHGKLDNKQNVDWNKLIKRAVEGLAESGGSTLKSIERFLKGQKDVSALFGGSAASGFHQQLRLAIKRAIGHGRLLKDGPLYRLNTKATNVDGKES
GACAAATC: -0.0801
ACTGTTAT: -0.044
AATGTGAT: -0.00371
TCCGGGAA: 0.146

Series 3 — technique: protein-binding microarray; molecule type: double-stranded DNA, one strand shown; matrix: in vitro; concentration: 0.8 µM; setting: whole 60-bp probe, no competitor; direction: higher = stronger binding; endpoint: fluorescence intensity
Target: Centromere-binding protein 1, full length, N-terminal tag (CBF1, Saccharomyces cerevisiae, UniProt P17106, residues 1-351)
Chain of UniProt P17106 (whole entry, looked up): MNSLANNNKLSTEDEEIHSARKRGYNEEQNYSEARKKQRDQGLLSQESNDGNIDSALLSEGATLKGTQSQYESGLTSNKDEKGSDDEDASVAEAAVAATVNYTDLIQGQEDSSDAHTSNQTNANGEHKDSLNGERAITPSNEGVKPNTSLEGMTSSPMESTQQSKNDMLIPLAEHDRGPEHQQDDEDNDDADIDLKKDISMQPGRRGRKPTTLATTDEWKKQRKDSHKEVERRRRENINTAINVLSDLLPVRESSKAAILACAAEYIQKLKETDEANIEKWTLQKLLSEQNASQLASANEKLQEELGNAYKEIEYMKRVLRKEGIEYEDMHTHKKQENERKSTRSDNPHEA
CTAACTACTAATAATCACGTGATATTTCTTTTCTTCGTCTTGATTCGCTTGACGCTGCTG: 33600 a.u.
CTAATGTTATAGAGTAACGTGGTATAATTACCATTCGTCTTGATTCGCTTGACGCTGCTG: 896 a.u.
GAACTTCGAGAGAATCACACCATTCAAGTATAATAGGTCTTGATTCGCTTGACGCTGCTG: 555 a.u.
GAATGTACTCGGAGCCACGATCCATCTGGATAATAGGTCTTGATTCGCTTGACGCTGCTG: 510 a.u.

Further values, each from its own experiment
PhoQ, residues 284 288 289 292 302 303 ASVMEA
fold induction (PhoP, residues 12 14 15 18 19 IFFTR (Escherichia coli, UniProt P23836); Sort-seq, measured: YFP reporter; E. coli; PhoQ-PhoP variant library, together with: 10 µM Mg2+; baseline: high Mg2+ state, higher = stronger signaling): 15.8

For quick reference, copied from above (series 1):
GCCTAGCACTTAGGTTTCGGTTCCCGTTAGTGCTAGGTCTTGATTCGCTTGACGCTGCTG: 12.3 z-score
